Assay results of several laboratories.
Numbers after ± are the reported error.

| SMILES | test | test system | conditions | AUC(0-inf) |
| --- | --- | --- | --- | --- |
| Cc1ccc([C@@H]2O[C@H](CO)[C@@H](O)[C@H](O)[C@H]2O)cc1Cc1ccc(-c2ccc(F)cc2)s1 | – | Japanese type 2 diabetes patients, plasma | oral, 100 mg single, normal or mild renal impairment | 6930 ng·h/mL |
| COc1ccc2c3c1O[C@H]1C[C@@H](OC(=O)c4ccccc4)C=C[C@@]31CCN(C)C2 | – | healthy elderly men, plasma | intranasal, 22 mg, single dose | 69.1 ng·h/mL |
| CC#CC(=O)N1CCC[C@H]1c1nc(-c2ccc(C(=O)Nc3ccccn3)cc2)c2c(N)nccn12 | – | Japanese patients, plasma | oral, 100 mg twice daily, day 8, fasting, multiple dose, geometric mean | 1210 ng·h/mL |
| O=C(C1CCCCC1)N1CC(=O)N2CCc3ccccc3[C@H]2C1 | – | healthy men, plasma | oral, 40 mg/kg racemic praziquantel, geometric mean, without efavirenz | 5670 ng·h/mL |
| CNC(=O)c1ccc(-c2cnc3ncc(Cc4ccc5ncccc5c4)n3n2)cc1F | – | mild hepatic impairment | oral, 200 mg, geometric mean | 4790 ng·h/mL |
| CC(C)(Sc1ccncc1-c1ccc(C#N)c2ccccc12)C(=O)O | – | healthy Japanese male subjects, plasma | oral, 5 mg single dose, day 6, fed, geometric mean | 73.2 ng·h/mL |
| COc1cc(OC)c(/C=C/S(=O)(=O)Cc2ccc(OC)c(NCC(=O)O)c2)c(OC)c1 | – | cancer patients, phase I, plasma | oral, 70 mg twice daily, day 1 cycle 1 | 1520 ± 1360 ng·h/mL |
| CC(C)=CCC[C@](C)(O[C@@H]1O[C@H](CO)[C@@H](O)[C@H](O)[C@H]1O)[C@H]1CC[C@]2(C)[C@@H]1[C@H](O)C[C@@H]1[C@@]3(C)CC[C@H](O[C@@H]4O[C@H](CO)[C@@H](O)[C@H](O)[C@H]4O)C(C)(C)[C@@H]3CC[C@]12C | LC-MS/MS | healthy male volunteers, serum | oral, 3 g red ginseng | 3.08 ± 2.24 ng·h/mL |
| CN1C(=O)[C@@H](NC(=O)c2nnc(Cc3ccccc3)[nH]2)COc2ccccc21 | – | healthy men, plasma | oral, 120 mg twice daily, day 1, geometric mean | 6800 ng·h/mL |
| Nc1cccc2c1C(=O)N(C1CCC(=O)NC1=O)C2=O (stereo not shown) | – | healthy male nonsmokers, plasma | oral, 4 mg, single dose, geometric mean | 684 ng·h/mL |
| NC(=O)c1cnc2[nH]ccc2c1N[C@@H]1[C@@H]2CC3C[C@H]1C[C@@](O)(C3)C2 | – | healthy Caucasian men, plasma | oral, 200 mg, single dose fasted | 1520 ng·h/mL |
| O=C(NC[C@H](O)CO)c1ccncc1Nc1ccc(I)cc1F | – | patients, plasma | oral, 45 mg single dose, day 8, median, alone | 1340 ng·h/mL |
| CCC[C@H](N[C@@H](C)C(=O)N1[C@H](C(=O)O)C[C@@H]2CCCC[C@@H]21)C(=O)OCC | – | healthy Chinese volunteers, whole blood | oral, 4 mg, fasting, together with: indapamide 1.25 mg | 34.5 ± 8.6 ng·h/mL |
| COc1cccc(N2CCN(C3=Nc4c(F)cccc4[C@H](CC(=O)O)N3c3cc(C(F)(F)F)ccc3OC)CC2)c1 | UHPLC-MS/MS | healthy women, plasma | intravenous infusion, 120 mg single dose, 30 min infusion, HPβCD formulation | 13600 ± 3820 ng·h/mL |
| C[C@@H]1CCO[C@H]2Cn3cc(C(=O)NCc4ccc(F)cc4F)c(=O)c(O)c3C(=O)N12 | – | healthy subjects matched to renal impairment, plasma | oral, 50 mg, single dose | 14100 to 60900 ng·h/mL |
| CC1Cc2ccccc2N1NC(=O)c1ccc(Cl)c(S(N)(=O)=O)c1 (stereo not shown) | – | healthy Chinese volunteers, whole blood | oral, 1.25 mg, fasting, together with: perindopril tert-butylamine 4 mg | 963 ± 146 ng·h/mL |
| CCOc1cc([C@@H](CS(C)(=O)=O)N2C(=O)c3cccc(NC(C)=O)c3C2=O)ccc1O[C@@H]1O[C@H](C(=O)O)[C@@H](O)[C@H](O)[C@H]1O | – | mild renal impairment, plasma | oral, 30 mg apremilast single, geometric mean | 5420 ng·h/mL |
| CC(C)(Sc1ccncc1-c1ccc(C#N)c2ccccc12)C(=O)O | – | male, plasma | oral, 15 mg, moderate renal impairment, fasted | 402 ng·h/mL |
| CC(C)NCCCn1c(Sc2cc3c(cc2I)OCO3)nc2c(N)ncnc21 | – | patients, plasma | intravenous, ≥266 mg/m2 | > 51.9 µM·h |
| CCOc1ccc(Cc2cc([C@@H]3S[C@H](CO)[C@@H](O)[C@H](O)[C@H]3O)c(OC)cc2C)cc1 | – | Japanese type 2 diabetes patients, plasma | oral, 5 mg single dose, eGFR ≥90 mL/min/1.73 m^2 | 2010 ± 508 ng·h/mL |
| CCN1CCN(Cc2ccc(Nc3ncc(F)c(-c4cc(F)c5nc(C)n(C(C)C)c5c4)n3)nc2)CC1 | population PK model | patients, plasma | oral, 200 mg single dose | 4420 ng·h/mL |
| CC(C)=CCC[C@](C)(O[C@@H]1O[C@H](CO)[C@@H](O)[C@H](O)[C@H]1O)[C@H]1CC[C@]2(C)[C@@H]1[C@H](O)C[C@@H]1[C@@]3(C)CC[C@H](O[C@@H]4O[C@H](CO)[C@@H](O)[C@H](O)[C@H]4O[C@@H]4O[C@H](CO)[C@@H](O)[C@H](O)[C@H]4O)C(C)(C)[C@@H]3CC[C@]12C | LC-MS/MS | healthy female volunteers, serum | oral, 3 g fermented red ginseng | 180 ± 88.1 ng·h/mL |
| C[C@H]1Oc2cc(cnc2N)-c2c(nn(C)c2C#N)CN(C)C(=O)c2ccc(F)cc21 | – | healthy adults | oral tablet, 100 mg single dose, high-fat meal, adjusted geometric mean | 8870 ng·h/mL |
| Cc1nc(-c2ccc(OCC(C)C)c(C#N)c2)sc1C(=O)O | – | healthy Chinese adult volunteers, plasma | oral, 20 mg single dose, fed | 2980 ± 761 ng·h/mL |
| Oc1ccc2c3c(cnc2c1)-c1ccc(C(F)(F)F)cc1O[C@@H]3c1ccc(OCCN2CC(CF)C2)cc1 | – | healthy fasted women, plasma | oral tablets, 400 mg | 1960 ng·h/mL |

Excerpt of the above:
| SMILES | test | test system | conditions | AUC(0-inf) |
| --- | --- | --- | --- | --- |
| Oc1ccc2c3c(cnc2c1)-c1ccc(C(F)(F)F)cc1O[C@@H]3c1ccc(OCCN2CC(CF)C2)cc1 | – | healthy fasted women, plasma | oral tablets, 400 mg | 1960 ng·h/mL |
| O=C(C1CCCCC1)N1CC(=O)N2CCc3ccccc3[C@H]2C1 | – | healthy men, plasma | oral, 40 mg/kg racemic praziquantel, geometric mean, without efavirenz | 5670 ng·h/mL |
